{"data": "Measurements from different studies", "note": "Compare with care: the assays were run in different laboratories. ± gives the spread as reported.", "chain of UniProt P08581 (whole entry, looked up)": "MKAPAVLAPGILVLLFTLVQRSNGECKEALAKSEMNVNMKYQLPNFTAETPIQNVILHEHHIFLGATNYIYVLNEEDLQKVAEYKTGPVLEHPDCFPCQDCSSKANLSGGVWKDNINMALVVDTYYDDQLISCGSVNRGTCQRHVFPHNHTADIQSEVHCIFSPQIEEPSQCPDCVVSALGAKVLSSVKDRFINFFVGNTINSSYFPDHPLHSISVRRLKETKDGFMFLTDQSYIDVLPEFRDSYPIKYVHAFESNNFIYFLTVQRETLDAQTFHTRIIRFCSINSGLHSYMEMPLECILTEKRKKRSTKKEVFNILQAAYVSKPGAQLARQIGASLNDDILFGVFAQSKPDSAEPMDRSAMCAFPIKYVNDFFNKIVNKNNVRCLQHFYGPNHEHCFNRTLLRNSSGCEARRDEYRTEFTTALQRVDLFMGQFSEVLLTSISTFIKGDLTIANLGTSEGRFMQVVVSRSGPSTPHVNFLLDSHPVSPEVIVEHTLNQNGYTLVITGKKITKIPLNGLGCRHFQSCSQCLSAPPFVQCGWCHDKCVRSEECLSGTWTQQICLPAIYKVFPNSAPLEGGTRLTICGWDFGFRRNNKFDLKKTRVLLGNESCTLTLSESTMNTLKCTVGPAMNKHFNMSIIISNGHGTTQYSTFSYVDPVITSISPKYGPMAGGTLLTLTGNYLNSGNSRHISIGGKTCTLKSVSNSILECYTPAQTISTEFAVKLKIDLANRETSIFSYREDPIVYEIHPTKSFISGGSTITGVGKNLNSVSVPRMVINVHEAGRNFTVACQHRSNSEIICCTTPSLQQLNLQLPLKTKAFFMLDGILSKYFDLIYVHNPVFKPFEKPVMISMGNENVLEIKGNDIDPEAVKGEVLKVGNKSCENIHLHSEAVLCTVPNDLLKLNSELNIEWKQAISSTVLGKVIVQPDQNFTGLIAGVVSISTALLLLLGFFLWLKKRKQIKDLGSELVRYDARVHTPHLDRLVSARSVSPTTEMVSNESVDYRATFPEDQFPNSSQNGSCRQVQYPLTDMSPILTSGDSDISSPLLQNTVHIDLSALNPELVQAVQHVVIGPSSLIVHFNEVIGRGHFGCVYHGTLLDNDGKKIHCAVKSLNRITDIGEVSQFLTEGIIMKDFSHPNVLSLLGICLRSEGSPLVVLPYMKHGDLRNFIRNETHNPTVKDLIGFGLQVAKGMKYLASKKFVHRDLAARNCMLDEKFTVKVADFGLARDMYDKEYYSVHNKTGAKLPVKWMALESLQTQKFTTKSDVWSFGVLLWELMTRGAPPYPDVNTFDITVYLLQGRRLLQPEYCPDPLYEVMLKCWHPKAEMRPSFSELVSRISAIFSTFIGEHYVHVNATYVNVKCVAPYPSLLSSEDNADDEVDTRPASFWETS"}
{"Compound": "CCCC[C@H](NC(C)=O)C(=O)N[C@H]1CC(=O)NCCCC[C@@H](C(=O)N[C@@H](C(=O)N2CCC[C@@H]2C(N)=O)C(C)C)NC(=O)[C@H](Cc2c[nH]c3ccccc23)NC(=O)[C@H](CCCN=C(N)N)NC(=O)[C@@H](Cc2ccc3ccccc3c2)NC(=O)[C@@H]2CCCN2C1=O", "system": "Beagle dog, both sexes, plasma", "conditions": "subcutaneous, once daily, 0.75 mg/kg, day 28", "endpoint": "half-life", "result": "2.9 ± 0.2 h"}
{"Compound": "[2H]C([2H])([2H])NC(=O)c1ccc(N2C(=S)N(c3ccc(C#N)c(C(F)(F)F)c3)C(=O)C2(C)C)cc1F", "system": "male human, plasma", "conditions": "oral, 80 mg, single dose, fasted", "endpoint": "half-life", "result": "115 h"}
{"Compound": "CCCCC/C=C/C(=O)CCc1ccc(O)c(OC)c1", "tested on": "mAb 3-LD3", "assay": "antibody binding, indirect competitive ELISA", "conditions": "together with: coating antigen hapten 3-OVA", "endpoint": "IC50", "result": "4.99 ng/mL"}
{"Compound": "CC(C)(O)c1ncc([S@](N)(=O)=NC(=O)Nc2c3c(cc4c2CCC4)CCC3)s1", "system": "human, plasma", "conditions": "oral, 10 mg, single dose, fasted, healthy volunteers", "endpoint": "half-life", "result": "7.8 h"}
{"Compound": "[64Cu+2].c1ccc(CNCc2ccc(CN3CCCN4CCNCCCN(CC4)CC3)cc2)nc1", "tested on": "CXCR4", "system": "NOD/SCID mouse, U87 and U87-stb-CXCR4 xenografts, pancreas", "conditions": "iv, 30 min, ex vivo", "endpoint": "tissue uptake", "result": "1.31 ± 0.18 %ID/g"}
{"Compound": "NS(=O)(=O)Nc1ncnc(OCCOc2ncc(Br)cn2)c1-c1ccc(Br)cc1", "assay": "metabolite formation", "system": "female Beagle dog, liver microsomes", "conditions": "500 mg/kg daily for 4 weeks", "endpoint": "Vmax", "result": "1250 ± 107 pmol/min/mg"}
{"Compound": "CN1CCC[C@]1(C)/C=C/S(=O)(=O)NC(=O)Nc1c2c(cc3c1CCC3)CCC2", "system": "human, plasma", "conditions": "oral, 50 mg, single dose, healthy volunteers", "endpoint": "half-life", "result": "5.8 h"}
{"Compound": "CCc1cc(Nc2nc(-c3ccc(-n4cnc(C)c4)c(F)c3)cs2)c(C)cc1C", "system": "human, plasma", "conditions": "oral, 200 mg, multiple doses, once daily", "endpoint": "half-life", "result": "8.7 h"}
{"Compound": "CC(=O)N[C@H](CSSC[C@H](N)C(=O)O)C(=O)N[C@H](C)C(=O)N[C@H](CCCNC(=N)N)C(=O)N[C@H](CCCNC(=N)N)C(=O)N[C@H](CCCNC(=N)N)C(=O)N[C@H](C)C(=O)N[C@H](CCCNC(=N)N)C(N)=O", "system": "male human, plasma", "conditions": "intravenous, 2 mg, single dose, healthy volunteers", "endpoint": "half-life", "result": "20 h"}
{"Compound": "Cc1ccc(OCC(=O)N(Cc2cccs2)c2ccn[nH]2)cc1", "system": "beagle dog, male, plasma", "conditions": "oral gavage, 100 mg/kg", "endpoint": "half-life", "result": "5.25 h"}
{"Compound": "CC(C)[C@H](NC(=O)CNC(=O)[C@H](CCC(N)=O)NC(=O)[C@H](C)N)C(=O)O", "system": "human male, plasma", "conditions": "intravenous infusion, 10 mg/kg single, 15 min infusion, geometric mean", "endpoint": "half-life", "result": "0.04 h"}
{"Compound": "CC12CC(c3ccc(S(C)(=O)=O)cc3)C3=C4CCC(=O)C=C4CCC3C1CCC2(O)C(F)(F)C(F)(F)F (stereo not shown)", "system": "human, plasma", "conditions": "oral, 4 mg, single dose, fasted, healthy volunteers", "endpoint": "half-life", "result": "38.9 h"}
{"Compound": "N#Cc1cccc(-c2ccc(=O)n(Cc3cccc(-c4ncc(OCC5CCN(CCCCC(=O)Nc6cccc7c6C(=O)N(C6CCC(=O)NC6=O)C7=O)CC5)cn4)c3)n2)c1 (stereo not shown)", "tested on": "Hepatocyte growth factor receptor (MET, Homo sapiens, UniProt P08581)", "assay": "degrader", "endpoint": "DC50", "result": "3.1 ± 1.3 nM"}
{"note": "Repeated from above:"}
{"Compound": "CCCC[C@H](NC(C)=O)C(=O)N[C@H]1CC(=O)NCCCC[C@@H](C(=O)N[C@@H](C(=O)N2CCC[C@@H]2C(N)=O)C(C)C)NC(=O)[C@H](Cc2c[nH]c3ccccc23)NC(=O)[C@H](CCCN=C(N)N)NC(=O)[C@@H](Cc2ccc3ccccc3c2)NC(=O)[C@@H]2CCCN2C1=O", "system": "Beagle dog, both sexes, plasma", "conditions": "subcutaneous, once daily, 0.75 mg/kg, day 28", "endpoint": "half-life", "result": "2.9 ± 0.2 h"}
{"Compound": "[2H]C([2H])([2H])NC(=O)c1ccc(N2C(=S)N(c3ccc(C#N)c(C(F)(F)F)c3)C(=O)C2(C)C)cc1F", "system": "male human, plasma", "conditions": "oral, 80 mg, single dose, fasted", "endpoint": "half-life", "result": "115 h"}
